Measured values collected from several papers.
Protocols differ between the studies behind these lines. Numbers after ± are the reported error.
Organism: Escherichia coli

CC[C@H](C)[C@H](NC(=O)[C@H](CC(C)C)NC(=O)[C@H](CCCCN)NC(=O)[C@@H](NC(=O)[C@H](C)NC(=O)[C@H](CCC(=O)O)NC(=O)[C@H](Cc1c[nH]cn1)NC(=O)[C@@H](NC(=O)[C@H](CCCCN)NC(=O)[C@H](CCC(N)=O)NC(=O)[C@H](Cc1ccccc1)NC(=O)[C@@H](NC(=O)[C@H](CCCCN)NC(=O)[C@@H](N)CCCCN)C(C)C)[C@@H](C)CC)[C@@H](C)CC)C(N)=O has an MIC of 16 µM (broth microdilution; CCARM 1238 resistant; 18 h, 37 °C).
For CC1(C)S[C@@H]2[C@H](NC(=O)C(C(=O)O)c3ccccc3)C(=O)N2[C@H]1C(=O)O (stereo partly drawn), the MIC was 6.12 µg/mL (broth microdilution; Keio mutant JW5086-3; 18 h, ferrienterobactin permease gene).
CC[C@H](C)[C@H](NC(=O)CNC(=O)[C@H](CC(=O)O)NC(=O)[C@H](CCC(=O)O)NC(=O)[C@@H](NC(=O)[C@H](CC(N)=O)NC(=O)[C@H](CCCNC(=N)N)NC(=O)CNC(=O)[C@@H](NC(=O)[C@H](CCCCN)NC(=O)[C@H](CCC(=O)O)NC(=O)[C@@H](NC(=O)[C@H](CCCCN)NC(=O)[C@H](CCCCN)NC(=O)[C@H](Cc1ccccc1)NC(=O)[C@@H](NC(=O)[C@H](CCCCN)NC(=O)[C@H](Cc1c[nH]c2ccccc12)NC(=O)[C@@H](N)CCCNC(=N)N)[C@@H](C)CC)[C@@H](C)CC)C(C)C)C(C)C)C(=O)N[C@H](C(=O)N[C@@H](CCCCN)C(=O)N[C@@H](C)C(=O)NCC(=O)N1CCC[C@H]1C(=O)N[C@@H](C)C(=O)N[C@H](C(=O)N[C@@H](C)C(=O)N[C@H](C(=O)N[C@H](C(=O)NCC(=O)N[C@@H](CCC(N)=O)C(=O)N[C@@H](C)C(=O)N[C@@H](C)C(=O)N[C@H](C(=O)N[C@H](C(=O)N[C@H](C(=O)N[C@@H](CCCCN)C(N)=O)C(C)C)C(C)C)[C@@H](C)O)C(C)C)C(C)C)C(C)C)[C@@H](C)CC has an MIC of 8 µM (K1 ATCC 700973, Mueller-Hinton broth; 16 h, 37 °C; growth inhibition over 99%).
For CC1(C)SC2C(NC(=O)C(NC(=O)C3=C(O)C4(CC4)NC3=O)c3ccccc3)C(=O)N2C1C(=O)O (stereo not drawn), the MIC was over 200 µg/mL (broth microdilution; isolate IU, CTX-M-14, TEM-1; no clavulanic acid).
The MIC of C[C@@H](O)[C@H](NC(=O)[C@H](Cc1c[nH]c2ccccc12)NC(=O)[C@H](Cc1c[nH]c2ccccc12)NC(=O)[C@H](Cc1c[nH]c2ccccc12)NC(=O)[C@@H](NC(=O)[C@H](Cc1c[nH]c2ccccc12)NC(=O)[C@H](CCCNC(=N)N)NC(=O)[C@@H](N)CCCNC(=N)N)[C@@H](C)O)C(=O)N[C@@H](Cc1c[nH]c2ccccc12)C(=O)N[C@@H](CCCNC(=N)N)C(=O)N[C@@H](CCCNC(=N)N)C(N)=O is reported as 2 µM (broth microdilution; 25922, Mueller-Hinton broth; 24 h, 37 °C, lowest concentration, 95% inhibition, together with: BSA).
For Cc1cc(-c2cn[nH]c2-c2cccc(OCc3cccc(C#N)c3)c2)cc(C)n1, the MIC was 0.008 µg/mL (broth microdilution; ΔtolC JW5503).
CNC(C)[C@@H]1CC[C@@H](N)[C@@H](O[C@H]2[C@H](O)[C@@H](O[C@H]3OC[C@](C)(O)[C@H](NC)[C@H]3O)[C@H](N)C[C@@H]2N)O1 (stereo partly drawn) has an MIC of 4 µg/mL (broth microdilution; 18 h).
The MIC of CC(C)[C@H](N)C(=O)N[C@@H](CC(=O)O)C(=O)N[C@@H](CCCCN)C(=O)N[C@@H](CCCCN)C(=O)N1CCC[C@H]1C(=O)N[C@@H](Cc1ccc(O)cc1)C(=O)N[C@@H](CCCNC(=N)N)C(=O)N1CCC[C@H]1C(=O)N[C@@H](CCCNC(=N)N)C(=O)N1CCC[C@H]1C(=O)N[C@@H](CCCNC(=N)N)C(=O)N1CCC[C@H]1C(=O)N1CCC[C@H]1C(=O)N[C@@H](CCCNC(=N)N)C(N)=O is reported as 2 µg/mL (broth microdilution; MRE600; 16 h, 37 °C, 25% Mueller-Hinton broth).
With CC(C)C[C@H](NC(=O)[C@H](CCCCN)NC(=O)[C@H](Cc1ccccc1)NC(=O)[C@@H](NC(=O)[C@H](CCCCN)NC(=O)CNC(=O)[C@H](CC(C)C)NC(=O)[C@@H](N)Cc1ccccc1)C(C)C)C(=O)N[C@@H](C)C(=O)N[C@@H](CO)C(=O)N[C@@H](CCCCN)C(=O)N[C@H](C(=O)N[C@@H](Cc1ccccc1)C(=O)N[C@@H](CCCCN)C(=O)N[C@@H](C)C(=O)N[C@H](C(=O)N[C@@H](Cc1ccccc1)C(=O)NCC(=O)N[C@@H](CCCCN)C(=O)N[C@H](C(=O)O)C(C)C)C(C)C)C(C)C the MIC was 6 µM (broth dilution; K12 BW25113; 18 h, 37 °C).
CC[C@H](C)[C@H](NC(=O)[C@H](CCCNC(=N)N)NC(=O)[C@H](CCC(N)=O)NC(=O)[C@@H](NC(=O)[C@@H](NC(=O)[C@H](CCCNC(=N)N)NC(=O)[C@@H](N)CCCCN)[C@@H](C)CC)C(C)C)C(=O)N[C@@H](CCCCN)C(=O)N[C@@H](CC(=O)O)C(=O)N[C@@H](Cc1ccccc1)C(=O)N[C@@H](CC(C)C)C(=O)N[C@@H](C)C(N)=O has an MIC of 140 ± 100 µM (broth microdilution; K12; 16 h, 37 °C).
The MIC of CC1(C)S[C@@H]2[C@H](NC(=O)C(C(=O)O)c3ccccc3)C(=O)N2[C@H]1C(=O)O (stereo partly drawn) is reported as 1000 µg/mL.
The MIC of CC[C@H](C)[C@H](NC(=O)[C@H](CCCCN)NC(=O)[C@H](CCCCN)NC(=O)CNC(=O)[C@H](CCCCN)NC(=O)[C@H](CC(C)C)NC(=O)[C@H](CCCCN)NC(=O)[C@H](CCCNC(=N)N)NC(=O)[C@@H](NC(=O)[C@H](CC(C)C)NC(=O)[C@H](CCCNC(=N)N)NC(=O)[C@@H](N)CCCNC(=N)N)[C@@H](C)CC)C(=O)N[C@@H](Cc1ccc(O)cc1)C(=O)N[C@@H](CC(C)C)C(=O)N[C@@H](Cc1ccc(O)cc1)C(=O)N[C@@H](Cc1ccccc1)C(=O)N[C@@H](CCCCN)C(=O)N[C@@H](CC(C)C)C(=O)N[C@@H](CCC(N)=O)C(=O)N[C@@H](CC(C)C)C(=O)N[C@@H](CC(C)C)C(=O)N[C@@H](CCCCN)C(=O)N[C@@H](CCCCN)C(N)=O is reported as 16 µM (KCTC 1682, Mueller-Hinton broth; together with: 150 mM NaCl).
With c1ccc(CNCc2ccccn2)nc1 the MIC was 1000 µM (NDM-1 producing; compound alone).
The MIC of CC[C@H](C)[C@H](N)C(=O)N[C@@H](CCCNC(=N)N)C(=O)N[C@H](C(=O)N[C@@H](Cc1c[nH]c2ccccc12)C(=O)N[C@@H](Cc1c[nH]c2ccccc12)C(=O)N[C@@H](CCCCN)C(=O)N[C@H](C(=O)N[C@H](C(=O)N[C@@H](CCCNC(=N)N)C(=O)N[C@@H](CCCCN)C(=O)N[C@@H](Cc1c[nH]c2ccccc12)C(=O)N[C@@H](CCCCN)C(=O)N[C@@H](C)C(=O)N[C@H](C(=O)N[C@@H](Cc1c[nH]c2ccccc12)C(=O)N[C@@H](Cc1c[nH]cn1)C(N)=O)[C@@H](C)CC)C(C)C)[C@@H](C)CC)C(C)C is reported as 25 µM (broth dilution; ATCC 25922, Mueller-Hinton broth; 24 h, 37 °C).
The MIC of N=C(N)c1ccc(OCc2cccc(COc3ccc(C(=N)N)cc3)c2)cc1 is reported as over 100 µg/mL (BW25113 mcr-1; compound alone).
The MIC of CC[C@H](C)[C@H](NC(=O)CNC(=O)[C@H](C)NC(=O)[C@@H](NC(=O)[C@@H](NC(=O)[C@@H](NC(=O)[C@@H](NC(=O)[C@@H](NC(=O)[C@H](CC(C)C)NC(=O)[C@H](CC(C)C)NC(=O)[C@@H]1CCCN1C(=O)[C@H](Cc1c[nH]c2ccccc12)NC(=O)[C@@H](N)Cc1ccccc1)[C@@H](C)CC)[C@@H](C)O)[C@@H](C)O)C(C)C)C(C)C)C(=O)N[C@@H](CC(N)=O)C(=O)N[C@@H](CC(C)C)C(=O)N[C@@H](Cc1ccc(O)cc1)C(=O)N[C@@H](CCCNC(=N)N)C(=O)N[C@@H](C)C(=O)N[C@H](C(=O)N[C@@H](CCCNC(=N)N)C(=O)N[C@@H](CCCNC(=N)N)C(=O)N[C@@H](CCCCN)C(=O)O)[C@@H](C)CC is reported as 108 µM (broth microdilution; K88, Mueller-Hinton broth; 37 °C).
CC[C@H](C)[C@H](N)C(=O)N[C@@H](CO)C(=O)N[C@@H](Cc1ccccc1)C(=O)N[C@@H](CC(C)C)C(=O)NCC(=O)N[C@@H](CO)C(=O)N[C@@H](CCCCN)C(=O)N[C@H](C(=O)N[C@H](C(=O)N[C@H](C(=O)N[C@@H](CC(C)C)C(=O)N[C@@H](CC(C)C)C(=O)N[C@@H](CCCCN)C(=O)N[C@@H](CCCNC(=N)N)C(=O)N[C@@H](CCCNC(=N)N)C(=O)N[C@@H](CCCNC(=N)N)C(=O)N[C@@H](CCCNC(=N)N)C(=O)N[C@@H](CCCNC(=N)N)C(=O)N[C@@H](CCCNC(=N)N)C(=O)N[C@@H](CCCNC(=N)N)C(N)=O)C(C)C)C(C)C)C(C)C has an MIC of 8 µM (checkerboard; 24 h, 37 °C, alone, rifampicin plate).
For Cc1ccc2[nH]c3c(c2c1)CCCC3NCCc1ccc(Br)cc1 (stereo not drawn), the MIC was 4 µg/mL (broth microdilution; MB5746 efflux-deficient hyperpermeable).
CC[C@H](C)[C@H](NC(=O)CNC(=O)[C@H](CC(=O)O)NC(=O)[C@H](CCCNC(=N)N)NC(=O)[C@@H](NC(=O)[C@H](CC(N)=O)NC(=O)[C@H](CCCNC(=N)N)NC(=O)CNC(=O)[C@@H](NC(=O)[C@H](CCCCN)NC(=O)[C@H](CCC(=O)O)NC(=O)[C@@H](NC(=O)[C@H](CCCCN)NC(=O)[C@H](CCCCN)NC(=O)[C@H](Cc1ccccc1)NC(=O)[C@@H](NC(=O)[C@H](CCCCN)NC(=O)[C@H](Cc1c[nH]c2ccccc12)NC(=O)[C@@H](N)CCCNC(=N)N)[C@@H](C)CC)[C@@H](C)CC)C(C)C)C(C)C)C(=O)N[C@H](C(=O)N[C@@H](CCCCN)C(=O)N[C@@H](C)C(=O)NCC(=O)N1CCC[C@H]1C(=O)N[C@@H](C)C(=O)N[C@H](C(=O)N[C@@H](C)C(=O)N[C@H](C(=O)N[C@H](C(=O)NCC(=O)N[C@@H](CCC(N)=O)C(=O)N[C@@H](C)C(=O)N[C@@H](C)C(=O)N[C@H](C(=O)N[C@H](C(=O)N[C@H](C(=O)N[C@@H](CCCCN)C(N)=O)C(C)C)C(C)C)[C@@H](C)O)C(C)C)C(C)C)C(C)C)[C@@H](C)CC gave an MIC of 1 µM (NCCP 16046 carbapenem-resistant).
C[C@@H](O)[C@H]1C(=O)N2C(C(=O)O)=C(SCCN=CN)C[C@H]12 has an MIC of 1 µg/mL (DH5α cloned blaKPC-144).
For CC1(C)CC[C@]2(C(=O)O)CC[C@]3(C)C(=CC[C@@H]4[C@@]5(C)CC[C@H](O)C(C)(C)[C@@H]5CC[C@]43C)[C@@H]2C1, the MIC was 512 µg/mL (BL21 pET28a-SP-NDM-1).

Some of these lines once more:
C[C@@H](O)[C@H]1C(=O)N2C(C(=O)O)=C(SCCN=CN)C[C@H]12 has an MIC of 1 µg/mL (DH5α cloned blaKPC-144).
The MIC of CC1(C)S[C@@H]2[C@H](NC(=O)C(C(=O)O)c3ccccc3)C(=O)N2[C@H]1C(=O)O (stereo partly drawn) is reported as 1000 µg/mL.
CNC(C)[C@@H]1CC[C@@H](N)[C@@H](O[C@H]2[C@H](O)[C@@H](O[C@H]3OC[C@](C)(O)[C@H](NC)[C@H]3O)[C@H](N)C[C@@H]2N)O1 (stereo partly drawn) has an MIC of 4 µg/mL (broth microdilution; 18 h).
